Published values from different studies.
Parts stem from different laboratories: compare values within a part only.
Chain of UniProt Q9HC98 (whole entry, looked up): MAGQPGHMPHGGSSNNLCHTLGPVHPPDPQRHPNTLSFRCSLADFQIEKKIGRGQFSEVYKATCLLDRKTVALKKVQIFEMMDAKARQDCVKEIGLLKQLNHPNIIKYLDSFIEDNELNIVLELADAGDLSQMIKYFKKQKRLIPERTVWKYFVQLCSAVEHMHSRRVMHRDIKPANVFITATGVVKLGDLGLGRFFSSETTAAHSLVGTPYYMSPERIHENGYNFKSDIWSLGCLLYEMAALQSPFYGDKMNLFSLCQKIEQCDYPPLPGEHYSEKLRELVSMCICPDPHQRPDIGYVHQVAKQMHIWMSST
Chain of UniProt Q04759 (whole entry, looked up): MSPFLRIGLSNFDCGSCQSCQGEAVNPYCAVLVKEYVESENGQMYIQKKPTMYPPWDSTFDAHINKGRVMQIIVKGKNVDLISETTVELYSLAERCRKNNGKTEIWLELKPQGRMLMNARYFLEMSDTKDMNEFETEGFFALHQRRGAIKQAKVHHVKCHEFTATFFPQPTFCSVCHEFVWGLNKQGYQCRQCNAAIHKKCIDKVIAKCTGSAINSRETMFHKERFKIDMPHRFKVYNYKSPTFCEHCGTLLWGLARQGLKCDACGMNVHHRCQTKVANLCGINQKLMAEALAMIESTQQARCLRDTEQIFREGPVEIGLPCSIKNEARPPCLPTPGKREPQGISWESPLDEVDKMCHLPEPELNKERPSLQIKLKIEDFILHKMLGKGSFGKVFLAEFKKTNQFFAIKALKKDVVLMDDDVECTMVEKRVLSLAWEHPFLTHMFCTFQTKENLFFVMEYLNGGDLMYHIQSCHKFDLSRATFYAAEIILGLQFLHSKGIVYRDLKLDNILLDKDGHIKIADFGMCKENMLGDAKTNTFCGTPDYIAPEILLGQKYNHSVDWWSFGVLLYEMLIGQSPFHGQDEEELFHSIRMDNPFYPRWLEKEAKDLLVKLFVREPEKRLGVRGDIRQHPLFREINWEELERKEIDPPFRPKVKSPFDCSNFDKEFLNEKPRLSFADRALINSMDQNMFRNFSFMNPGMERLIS
Chain of UniProt P46734 (whole entry, looked up): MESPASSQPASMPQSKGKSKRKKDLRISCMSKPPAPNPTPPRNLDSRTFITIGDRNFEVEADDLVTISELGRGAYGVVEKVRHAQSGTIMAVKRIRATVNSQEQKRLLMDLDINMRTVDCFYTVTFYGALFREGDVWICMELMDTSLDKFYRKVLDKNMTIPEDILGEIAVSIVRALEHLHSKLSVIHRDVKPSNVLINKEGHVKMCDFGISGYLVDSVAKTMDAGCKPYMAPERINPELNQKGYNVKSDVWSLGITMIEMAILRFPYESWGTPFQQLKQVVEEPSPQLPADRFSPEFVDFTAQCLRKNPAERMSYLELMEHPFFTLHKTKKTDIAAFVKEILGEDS
Chain of UniProt P10721 (whole entry, unmodified, looked up): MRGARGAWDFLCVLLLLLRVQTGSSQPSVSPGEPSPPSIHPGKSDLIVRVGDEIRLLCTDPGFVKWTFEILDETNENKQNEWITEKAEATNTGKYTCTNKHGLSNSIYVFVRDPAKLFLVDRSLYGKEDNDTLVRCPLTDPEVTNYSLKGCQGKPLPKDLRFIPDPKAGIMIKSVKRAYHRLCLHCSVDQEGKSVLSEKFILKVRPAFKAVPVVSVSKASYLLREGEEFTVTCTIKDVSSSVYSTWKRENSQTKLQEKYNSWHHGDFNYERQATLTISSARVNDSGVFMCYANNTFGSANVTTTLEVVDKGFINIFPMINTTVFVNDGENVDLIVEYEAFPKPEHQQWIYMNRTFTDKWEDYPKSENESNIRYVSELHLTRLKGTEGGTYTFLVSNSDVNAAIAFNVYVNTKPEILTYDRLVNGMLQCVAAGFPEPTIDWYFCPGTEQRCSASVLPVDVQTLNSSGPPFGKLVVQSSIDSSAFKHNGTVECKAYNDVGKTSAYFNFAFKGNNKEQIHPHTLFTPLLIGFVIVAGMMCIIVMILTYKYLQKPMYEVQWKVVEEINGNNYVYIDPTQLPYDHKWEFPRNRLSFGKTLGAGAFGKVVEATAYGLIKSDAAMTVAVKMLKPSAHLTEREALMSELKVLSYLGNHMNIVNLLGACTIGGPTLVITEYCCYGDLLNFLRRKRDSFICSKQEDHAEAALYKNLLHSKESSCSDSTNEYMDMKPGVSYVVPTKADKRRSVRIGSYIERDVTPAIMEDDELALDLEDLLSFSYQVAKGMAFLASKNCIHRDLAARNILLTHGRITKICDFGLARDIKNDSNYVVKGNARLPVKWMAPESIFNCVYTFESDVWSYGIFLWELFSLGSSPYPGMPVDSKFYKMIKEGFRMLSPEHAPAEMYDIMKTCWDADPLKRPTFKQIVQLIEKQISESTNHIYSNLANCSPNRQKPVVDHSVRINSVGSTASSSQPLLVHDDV
Chain of UniProt Q52WX2 (whole entry, looked up): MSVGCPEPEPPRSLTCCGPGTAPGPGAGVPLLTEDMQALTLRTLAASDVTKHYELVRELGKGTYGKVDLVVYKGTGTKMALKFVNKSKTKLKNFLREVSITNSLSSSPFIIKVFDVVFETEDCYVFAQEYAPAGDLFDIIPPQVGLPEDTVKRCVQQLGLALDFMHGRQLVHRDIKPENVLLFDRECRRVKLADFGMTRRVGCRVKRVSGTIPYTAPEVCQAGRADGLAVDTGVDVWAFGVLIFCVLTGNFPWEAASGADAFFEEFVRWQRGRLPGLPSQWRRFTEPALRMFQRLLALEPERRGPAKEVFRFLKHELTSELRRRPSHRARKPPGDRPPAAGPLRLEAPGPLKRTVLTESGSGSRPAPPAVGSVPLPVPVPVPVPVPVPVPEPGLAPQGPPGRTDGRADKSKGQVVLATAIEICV
Chain of UniProt P57078 (whole entry, looked up): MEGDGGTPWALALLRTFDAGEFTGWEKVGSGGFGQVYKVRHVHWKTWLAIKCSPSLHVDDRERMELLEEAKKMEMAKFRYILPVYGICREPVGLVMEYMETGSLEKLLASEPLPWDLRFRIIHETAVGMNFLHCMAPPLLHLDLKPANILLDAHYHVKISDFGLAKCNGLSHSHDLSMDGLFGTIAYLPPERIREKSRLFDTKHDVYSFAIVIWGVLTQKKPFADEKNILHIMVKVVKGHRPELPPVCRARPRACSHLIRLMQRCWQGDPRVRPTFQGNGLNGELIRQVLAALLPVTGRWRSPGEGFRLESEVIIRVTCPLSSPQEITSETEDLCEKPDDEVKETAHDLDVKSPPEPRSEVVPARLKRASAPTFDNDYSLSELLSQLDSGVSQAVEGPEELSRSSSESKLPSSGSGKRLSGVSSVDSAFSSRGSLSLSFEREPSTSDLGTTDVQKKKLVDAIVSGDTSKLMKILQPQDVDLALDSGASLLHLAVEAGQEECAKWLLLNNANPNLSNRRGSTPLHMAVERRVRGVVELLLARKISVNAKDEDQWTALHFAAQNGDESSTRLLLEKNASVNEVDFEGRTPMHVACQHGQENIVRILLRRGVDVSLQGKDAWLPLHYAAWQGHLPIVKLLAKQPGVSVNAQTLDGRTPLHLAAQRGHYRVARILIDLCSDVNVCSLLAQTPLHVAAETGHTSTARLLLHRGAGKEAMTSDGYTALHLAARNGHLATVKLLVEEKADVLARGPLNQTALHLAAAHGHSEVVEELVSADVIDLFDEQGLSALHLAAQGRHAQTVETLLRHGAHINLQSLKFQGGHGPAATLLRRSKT

Series 1
Cell line: A-375
Concentration: 100 µM
Time: 18 h
| SMILES | viability |
| --- | --- |
| C=C1[C@H](CO)[C@@H](O)C[C@@H]1n1cnc2c(=O)[nH]c(N)nc21 | 97.8% |
| O=C1C(O)=C([C@H]2CC[C@H](c3ccc(Cl)cc3)CC2)C(=O)c2ccccc21 | 20.8% |
| C/C(=C(\CCOP(=O)(O)O)SC(=O)c1ccccc1)N(C=O)Cc1cnc(C)nc1N | 93.7% |
| C#C[C@]1(O)CC[C@H]2[C@@H]3CCc4cc(OC)ccc4[C@H]3CC[C@@]21C | 18.7% |
| CCOc1ccccc1OCCN[C@H](C)Cc1ccc(OC)c(S(N)(=O)=O)c1 | 83.9% |
| Nc1nc2c(ncn2COCCO)c(=O)[nH]1 | 97% |
| c1cnc(N2CCN(Cc3ccc4c(c3)OCO4)CC2)nc1 | 93.1% |

Series 2
Target: Tyrosine-protein kinase JAK3 (JAK3, Homo sapiens, UniProt P52333)
Read-out: enzyme activity
Action: inhibitor
Concentration: 0.5 µM
Baseline: control
Target sequence (P52333 1-1124): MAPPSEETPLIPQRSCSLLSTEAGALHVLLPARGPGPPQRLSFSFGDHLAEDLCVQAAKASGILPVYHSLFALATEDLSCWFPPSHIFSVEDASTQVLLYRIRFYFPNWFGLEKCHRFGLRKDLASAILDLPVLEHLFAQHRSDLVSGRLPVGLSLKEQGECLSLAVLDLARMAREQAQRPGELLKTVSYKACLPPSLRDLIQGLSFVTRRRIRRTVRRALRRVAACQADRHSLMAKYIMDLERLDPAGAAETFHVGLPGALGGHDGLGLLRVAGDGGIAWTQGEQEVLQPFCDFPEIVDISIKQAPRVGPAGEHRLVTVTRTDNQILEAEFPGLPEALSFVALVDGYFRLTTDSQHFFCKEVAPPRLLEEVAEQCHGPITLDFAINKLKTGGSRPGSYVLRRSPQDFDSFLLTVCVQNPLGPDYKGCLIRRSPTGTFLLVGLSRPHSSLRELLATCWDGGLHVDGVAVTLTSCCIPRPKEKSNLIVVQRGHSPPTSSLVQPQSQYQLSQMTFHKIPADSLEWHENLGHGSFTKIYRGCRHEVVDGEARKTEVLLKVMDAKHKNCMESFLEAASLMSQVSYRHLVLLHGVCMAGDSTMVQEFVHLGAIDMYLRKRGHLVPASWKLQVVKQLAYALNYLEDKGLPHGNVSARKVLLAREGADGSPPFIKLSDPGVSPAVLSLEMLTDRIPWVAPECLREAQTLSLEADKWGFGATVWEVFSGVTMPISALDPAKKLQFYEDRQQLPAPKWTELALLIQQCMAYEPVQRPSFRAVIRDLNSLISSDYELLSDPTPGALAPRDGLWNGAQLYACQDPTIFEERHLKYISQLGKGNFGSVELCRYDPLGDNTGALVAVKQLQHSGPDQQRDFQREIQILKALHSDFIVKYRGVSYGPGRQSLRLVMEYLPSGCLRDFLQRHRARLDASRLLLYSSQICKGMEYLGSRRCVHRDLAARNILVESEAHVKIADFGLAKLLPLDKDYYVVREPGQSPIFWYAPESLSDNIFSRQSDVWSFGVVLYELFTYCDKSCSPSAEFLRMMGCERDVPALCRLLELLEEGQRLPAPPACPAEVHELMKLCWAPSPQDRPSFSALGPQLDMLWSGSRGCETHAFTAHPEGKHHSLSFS
| Compound | remaining activity |
| --- | --- |
| Cc1ccc(Nc2nccc(N(C)c3ccc4c(C)n(C)nc4c3)n2)cc1S(N)(=O)=O | 95.3% |
| Nc1ccc2ncnc(NCCc3ccc(Oc4ccccc4)cc3)c2c1 | 96.9% |
| O=S(=O)(c1cccc2cnccc12)N1CCCNCC1 | 120% |
| CN(C)c1ccc(C=C2C(=O)Nc3ccccc32)cc1 | 113% |
| Nc1[nH]nc2nc3ccccc3nc12 | 68% |
| O=C(Nc1cccc(Nc2cc(Nc3cccc(C(F)(F)F)c3)ncn2)c1)C1CC1 | 106% |
| CO[C@H]1C[C@@H]2CC[C@@H](C)[C@@](O)(O2)C(=O)C(=O)N2CCCC[C@H]2C(=O)O[C@H]([C@H](C)C[C@@H]2CC[C@@H](O)[C@H](OC)C2)CC(=O)[C@H](C)/C=C(\C)[C@@H](O)[C@@H](OC)C(=O)[C@H](C)C[C@H](C)/C=C/C=C/C=C/1C | 92.4% |
| COc1ccc(C(=O)Nc2sc3c(c2C(N)=O)CCCC3)cc1OC | 108% |
| Cn1c2ccccc2c2c3c(c4c5ccccc5n(CCC#N)c4c21)CNC3=O | 2.44% |
| Cn1sc(=O)n(Cc2ccccc2)c1=O | 106% |
| C#Cc1cccc(Nc2ncnc3cc(OCCOC)c(OCCOC)cc23)c1 | 91.3% |
| O=C(O)c1ccc2c3c1cccc3c(=O)n1c3ccccc3nc21 | 46.9% |
| O=C1NC(=O)C(c2cn(CCCn3ccnc3)c3ccccc23)=C1Nc1ccccc1 | 7.97% |
| CCOC(=O)c1c(C)[nH]c(/C=C2\C(=O)Nc3ccccc32)c1C | 69.1% |
| COc1ccc(OC)c2c(=S)c3ccccc3[nH]c12 | 96.7% |
| OCC(O)CCON=C1C(c2c(O)[nH]c3ccccc23)=Nc2ccccc21 (stereo not drawn) | 16.9% |
| COc1ccc(CNC(=O)Nc2ncc([N+](=O)[O-])s2)cc1 | 105% |
| Cc1nc(-c2ccccc2)c(-c2ccncc2)o1 | 90.7% |

Series 3
SMILES: O=C(N1CCS(=O)(=O)CC1)N1C[C@H](c2ccc(OC(F)(F)F)cc2)C[C@H](c2nc(C3CC3)no2)C1
Read-out: cell-free assay
Technique: competition with immobilised ligand
Concentration: 1 µM
| target | remaining binding |
| --- | --- |
| KIT (Homo sapiens, UniProt P10721, V559D) | 100% |
| MAP2K3 (Homo sapiens, UniProt P46734) | 100% |
| NEK6 (Homo sapiens, UniProt Q9HC98) | 98% |
| RIPK4 (Homo sapiens, UniProt P57078) | 97% |
| SBK1 (Homo sapiens, UniProt Q52WX2) | 90% |
| PRKCQ (Homo sapiens, UniProt Q04759) | 86% |

Series 4
Target: Beta-1 adrenergic receptor (ADRB1, Homo sapiens, UniProt P08588)
Chain of UniProt P08588 (whole entry, looked up): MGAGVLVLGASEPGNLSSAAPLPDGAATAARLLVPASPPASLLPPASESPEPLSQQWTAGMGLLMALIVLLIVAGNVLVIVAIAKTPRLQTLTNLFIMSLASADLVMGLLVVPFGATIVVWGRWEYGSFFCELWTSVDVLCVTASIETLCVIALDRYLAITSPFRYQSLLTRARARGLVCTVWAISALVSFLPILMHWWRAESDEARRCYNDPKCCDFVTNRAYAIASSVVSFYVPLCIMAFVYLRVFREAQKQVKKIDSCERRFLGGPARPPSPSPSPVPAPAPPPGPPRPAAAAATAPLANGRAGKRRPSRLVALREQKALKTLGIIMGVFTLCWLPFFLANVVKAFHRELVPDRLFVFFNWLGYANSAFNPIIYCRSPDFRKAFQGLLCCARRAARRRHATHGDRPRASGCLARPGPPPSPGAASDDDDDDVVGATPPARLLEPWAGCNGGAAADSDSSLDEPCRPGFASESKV
Action: agonist
| SMILES | EC50 [µM] |
| --- | --- |
| Cc1ccc2c(CSc3nnnn3Cc3ccco3)cc(=O)oc2c1 | ≥ 100 |
| CN(C)c1cc(=O)c2ccnc(-c3ccc(O)c(F)c3)c2o1 | ≥ 100 |
| O=C1COc2ccc(-c3ccsc3)nc2CN1 | ≥ 100 |
| CN1CCC(Cn2ccc3c(N4CCOCC4)nc(-c4cccc5[nH]ncc45)cc32)CC1 | ≥ 100 |
| O=C1c2cc(N3CCOCC3)nc(-c3cccc(O)c3)c2CN1CC(F)(F)F | ≥ 100 |
| O=C(O)Cn1cc(-c2cccc(-c3nn4c(=O)cc(N5CCNCC5)nc4s3)c2)cn1 | 7.94 |
| COc1cccc(F)c1C(=O)Nc1ccc2ccccc2n1 | ≥ 100 |

Mixed results
| Structure (SMILES) | test | system | conditions | quantity | value |
| --- | --- | --- | --- | --- | --- |
| CC(C)n1cnc(-c2ccc(F)cc2)c1-c1ncc(C(=O)Nc2ccc(N3CCN(C)CC3)cc2)[nH]1 | phase 2a clinical trial | patients with idiopathic pulmonary fibrosis | 30 mg once daily, added: standard of care | patients with AST increase | 0% |

A few entries again (series 4):
| SMILES | EC50 [µM] |
| --- | --- |
| O=C1c2cc(N3CCOCC3)nc(-c3cccc(O)c3)c2CN1CC(F)(F)F | ≥ 100 |
| COc1cccc(F)c1C(=O)Nc1ccc2ccccc2n1 | ≥ 100 |
| O=C(O)Cn1cc(-c2cccc(-c3nn4c(=O)cc(N5CCNCC5)nc4s3)c2)cn1 | 7.94 |
| CN1CCC(Cn2ccc3c(N4CCOCC4)nc(-c4cccc5[nH]ncc45)cc32)CC1 | ≥ 100 |
| CN(C)c1cc(=O)c2ccnc(-c3ccc(O)c(F)c3)c2o1 | ≥ 100 |
| Cc1ccc2c(CSc3nnnn3Cc3ccco3)cc(=O)oc2c1 | ≥ 100 |
| O=C1COc2ccc(-c3ccsc3)nc2CN1 | ≥ 100 |
